Experimental data collected from several papers.
Parts stem from different laboratories: compare values within a part only. Substitutions count along the parent as printed.

Series 1
Target: RING finger protein unkempt homolog, zinc fingers 1-6, GST-SBP tag (UNK, Homo sapiens, UniProt Q9C0B0, residues 30-357)
Method: RNA Bind-n-Seq
Molecule type: RNA
Matrix: in vitro
Tested at: not given
Notes: RNA with constant flanks, human and mouse sites, ends assumed
Relative to: input RNA pool
Direction: higher = stronger binding
All sequences stand within: GGGAGUUCUACAGUCCGACGAUC … CAACAGAGGAUUGAGCAUCA
Target sequence (chain): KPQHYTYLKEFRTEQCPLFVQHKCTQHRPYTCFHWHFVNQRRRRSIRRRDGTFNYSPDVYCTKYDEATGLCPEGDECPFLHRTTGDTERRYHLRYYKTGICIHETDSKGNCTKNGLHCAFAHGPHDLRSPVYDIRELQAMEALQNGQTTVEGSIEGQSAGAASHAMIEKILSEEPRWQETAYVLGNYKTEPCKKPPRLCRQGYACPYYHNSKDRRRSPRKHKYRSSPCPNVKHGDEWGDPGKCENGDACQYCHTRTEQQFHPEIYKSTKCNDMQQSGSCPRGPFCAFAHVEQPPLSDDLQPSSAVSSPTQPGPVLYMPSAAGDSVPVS
| Strand | bound/input enrichment |
| --- | --- |
| AAUUCUGGAGGGCUGUGAUUUUUCCAGUAUUAAACAUGCAUGCGUUGAUCUUGCAGUUUAUUUCUCAUUGUGUAUGUAUAUAUAGCUUUUCUCUGCAGCACGAUUCCCUUUUGAUAAGGC | 0.195 ratio |
| UCUUUUGCUUUUUCUCGGCACGUGGUAUCUCCACCAUUUCUUCUGCACAAAGAUGUCUUCUGUUCAUCCUGAACAUUUUUAAAAAAUGCAGAAUUUUAUGUGACUGCUUUUUUGCCUCAC | 0.108 ratio |
| CCUGACAAGCUGAACAAUGGUGGAUCUGAUAGCCCAUGUGACUUGAAAUCACCUAGUGCUUUUAGUGAAAACCGGCAGGACUAUUUUGAAUAUGAGUCAACUAACCCGUUUACAGCAAAA | 0.22 ratio |
| AAAGAAGACAUUGCCAUGUGGGAAGUAAAUGAAGCAUUCAGUGUGGUUGUGCUAGCCAACAUUAAAAUGCUGGAGAUUGACCCCCAAAAAGUAAAUAUCCACGGAGGAGCUGUUUCUCUG | 0.186 ratio |
| UCUCGUUAAAACCACCAGUAAAAGUGUAACCUUUCUGUUUUGUACAAGGCCUUUCAGUUUUUGUUUUUGGGAAACCAAGGGAAAAAGCACAUUGCAAUCUACUCAAGUGUUUUACCGUUG | 0.124 ratio |
| GGCUCAGUGAAGAAGGUCAACGAGUCCUCACUGAACUGGCCUCAGUUGGAGAAUAUUGGCAACUUUAUUAAAGCUAUUCAGGCUUAUGGUAUGAAGCCACAUGACAUAUUCGAAGCAAAU | 0.0965 ratio |
| UAAGUAGGAACUGCCUCGAGCAGCUGGGACCCAGCAGGCCUGAGCCACAAAUCUGCAGCGGACAUCAGAGAUAGUCUGAAUGCUGCGAGGUAUUUCUUUCUUCGUAAGUUUAGUCAGCAC | 0.228 ratio |
| GCCAGGGGAGUUCUCAAAUGUGACAUCACAGACCUUCAGAUCAUUUGUUCUUUGGGAUAUAGCAUUCUUCUCAUGGUCACAUGUACUGUGUAUGCCAUCAAGACUCGGGGUGUACCAGAG | 0.328 ratio |
| CAGUGGUAUUAAUGGAUGGCAUUAUGUUUGGAGGCAGCAGCAUAGAGGACUGUUGUUUAUAGAGAAAAGAUUUGGGAAGGACUGUUUACAAUGUGGGUCAGCCUGAAGCCUGGGCACUUU | 1.78 ratio |
| UAGGAAGCAAAUGUCUAUUUCCAAAGCAAUGAGCUUGUUGUGACUGUGAUUUUAUUCUUCUAUAGUAUUUUUUUCCUCAUUUUAACUGAGAGGAGAAAAUAAUACUCUUUUGCAAUAUCC | 0.268 ratio |
| UUUCUGAAAAUCCAAAGUCAGGAAGCCAAGUGUGCGAAGGGUUAGUGACGCCUCUGGCAAUAGCUUUGGCUUGCCCUGGGCCAUACUCUGUCAGCACUGAAAGGAGGUUUAAAUACUAUG | 0.144 ratio |

Series 2
Target: CCNA2, cyclin fold, Cln2 fusion (human)
Method: yeast growth competition, sequencing
Matrix: yeast
Notes: weak parent motif
Relative to: not given
Direction: higher = stronger binding
Starting sequence: HIRA docking peptide (human); SLSKRKLELEVET
| Change | normalised enrichment score |
| --- | --- |
| R5A | -0.569 |
| S1A | 1.26 |
| L7A | 0.108 |
| T13A | 1.2 |
| L2A | 0.425 |
| K4A | -0.0589 |
| R5K L9F | 2.8 |

Series 3
Target: BATF3, bZIP domain (human)
Method: DHFR protein complementation
Matrix: yeast
Notes: single substitutions, most at no-binding floor
Relative to: wild-type JUN-FOS pair
Direction: higher = stronger binding
Starting sequence: JUN, bZIP domain (human); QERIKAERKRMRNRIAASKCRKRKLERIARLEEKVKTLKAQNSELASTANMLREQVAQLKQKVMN; partner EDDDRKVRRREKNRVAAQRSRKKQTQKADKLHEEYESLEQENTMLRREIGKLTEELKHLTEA
| Change | binding fitness [natural log] |
| --- | --- |
| L31E | 0.232 |
| V35S | -0.046 |
| S43E | 0.249 |
| E32C | -0.0178 |
| E54F | 0.0873 |
| Q41K | 0.201 |
| Q41W | -0.967 |
| E44P | -0.54 |
| K36E | 0.195 |
| A40F | 0.223 |
| K36D | 0.223 |
| A40P | -0.785 |
| T48M | 0.136 |
| L45I | -0.0628 |
| L38K | 0.0756 |
| T48D | 0.0828 |
| E32T | 0.122 |
| K36M | 0.359 |

Series 4
Target: TAR DNA-binding protein 43, full length, His tag (TARDBP, Homo sapiens, UniProt Q13148, residues 1-414)
Method: RNA Bind-n-Seq
Molecule type: RNA
Matrix: in vitro
Tested at: 20 nM
Notes: 6-mer, flanks averaged, single round
Added: 150 mM LiCl
Relative to: input library
Direction: higher = stronger binding
| Strand | 6-mer enrichment (R) |
| --- | --- |
| GUCCGC | 0.922 |
| CACCCA | 1.04 |
| UCAACC | 0.844 |
| GUUUUG | 1.5 |
| GUUAAA | 0.953 |
| GACUCU | 0.87 |
| AGUGAU | 0.981 |
| UACCCU | 1.01 |
| CUAAAC | 0.804 |
| CCAUCU | 0.903 |
| GCCCUA | 0.99 |
| UUAAAC | 0.873 |
| CGCCAA | 0.894 |
| CCGGUG | 1.03 |
| GCGGUA | 1.04 |
| AGGCGG | 1.09 |
| CAGUAU | 0.945 |
| UCUCUU | 1 |
| UUCUCU | 0.965 |
| CUCUGU | 0.951 |
| UCUGUC | 0.908 |
| AGUUUA | 1 |
| GCGAGA | 1.01 |

Series 5
Target: Interferon regulatory factor 5, full length, phosphomimetic (IRF5, Homo sapiens, UniProt Q13568-2, residues 1-514, S451D/S453D/S456D/S462D)
Method: protein-binding microarray
Molecule type: double-stranded DNA, one strand shown
Matrix: in vitro
Tested at: 940 nM top
Notes: 60-bp whole probe
Added: salmon DNA 0.4 mg/ml
Relative to: random background probes
Direction: higher = stronger binding
All sequences stand within: GCCTAGCAC … GTCTTGATTCGCTTGACGCTGCTG
| Strand | fitted relative affinity |
| --- | --- |
| CACGATTTCAGTTTCGAGACGTGCTAG | 4.73 z-score |
| GTAGGTTTCGACTATCGGTTAGTGCTA | 8.22 z-score |
| TTAGATCTCAGACTAGATTAGTGCTAG | -0.35 z-score |
| AGTATGTTCCCTATTTAAGGGTGCTAG | 0.284 z-score |
| GACGGTCTCGACTATCGGGACGTGCTA | 1.46 z-score |
| TCAATCGTAAGCAAAAAACTGTGCTAG | -0.361 z-score |
| TTAGGTTTCGGGTGTCGGTTAGTGCTA | 10.8 z-score |
| CTGATCCTTCATTTGAAAGAGTGCTAG | -0.000364 z-score |
| GACGGTCTCGAACTGGGGACGTGCTAG | 0.0959 z-score |
| TTTGATCTCAGACTGGATTAGTGCTAG | 0.056 z-score |
| TACGATATCGGGTTTCGAGACGTGCTA | 2.24 z-score |
| GACGGACTGGTACTGGGGACGTGCTAG | -0.338 z-score |
| ATATACCTGTATATCTTCAGGTGCTAG | 0.245 z-score |
| ACATATATACAGAGATAGATGTGCTAG | 0.0279 z-score |
| TTAGATATCAGACTGAATTAGTGCTAG | -0.248 z-score |
| TTAGGTTTCGGGACTGGGTTGGTGCTA | 8.11 z-score |
| TTAGGACTGGGTCTCTGTTAGTGCTAG | 0.0458 z-score |
| TCAAGGTTGTTTCTAATACTGTGCTAG | 0.33 z-score |
| AGAGTTCCAGACAGCTCCCTGTGCTAG | -0.207 z-score |
| TTTTCATTTTCTTTAACTCAGTGCTAG | 2.73 z-score |
| GCCTACTCGCTCGTCCGGAGGTGCTAG | -0.399 z-score |
| GACGGTATCGCCTATCGGGACGTGCTA | 3.29 z-score |
| TCATTTTTCATTGTTTTACTGTGCTAG | 1.62 z-score |
| GACGATTTCAGACTGGCGACGTGCTAG | -0.431 z-score |
| TTTATTTTCTGAATGCCCTCGTGCTAG | 1.17 z-score |

Series 6
Target: ABI1, truncated, D143A, DHFR fusion (Arabidopsis thaliana)
Method: DHFR PCA, deep sequencing
Matrix: yeast
Notes: methotrexate growth selection, single substitutions
Added: (+)-ABA 0.032 µM
Relative to: wild-type fitted maximum
Direction: higher = stronger binding
Starting sequence: PYL1, truncated, DHFR fusion (Arabidopsis thaliana); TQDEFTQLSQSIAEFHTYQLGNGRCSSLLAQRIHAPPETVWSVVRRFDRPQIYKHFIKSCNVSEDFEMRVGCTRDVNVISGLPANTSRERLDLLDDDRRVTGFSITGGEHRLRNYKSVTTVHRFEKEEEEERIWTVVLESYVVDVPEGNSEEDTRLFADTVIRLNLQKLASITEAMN; partner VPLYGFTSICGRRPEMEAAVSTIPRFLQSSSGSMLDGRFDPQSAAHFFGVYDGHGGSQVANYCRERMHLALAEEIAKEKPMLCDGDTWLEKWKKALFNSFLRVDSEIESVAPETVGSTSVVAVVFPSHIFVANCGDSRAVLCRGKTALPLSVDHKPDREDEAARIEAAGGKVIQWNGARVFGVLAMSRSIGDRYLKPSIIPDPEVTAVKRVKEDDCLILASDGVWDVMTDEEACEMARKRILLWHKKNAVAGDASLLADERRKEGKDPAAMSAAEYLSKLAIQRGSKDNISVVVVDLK
| Change | relative binding score |
| --- | --- |
| G108C | 6.39% |
| Q31M | 3.53% |
| Q167D | 1.04% |
| A35D | 10.2% |
| L166T | 0.202% |
| L82M | 33.8% |
| E89T | 0.161% |
| V121D | 3.64% |
| C25V | 53.7% |
| L29T | 0.674% |
| V70T | 0.884% |
| W41Y | -16.1% |
| R49H | 4.94% |
| T39G | 0.296% |
| I12M | 6.28% |

Further values, each from its own experiment
| Substance | target | assay | system | conditions | how to read | endpoint | value |
| --- | --- | --- | --- | --- | --- | --- | --- |
| PhoQ, residues 284 288 289 292 302 303 SLANKL | PhoP, residues 12 14 15 18 19 NFCKL (Escherichia coli, UniProt P23836) | Sort-seq, measured: YFP reporter | E. coli | PhoQ-PhoP variant library, added: 10 µM Mg2+ | relative to: high Mg2+ state, higher = stronger signaling | fold induction | 0.639 |

Repeated from above (series 3):
| Change | binding fitness [natural log] |
| --- | --- |
| E32C | -0.0178 |
| A40F | 0.223 |
| E44P | -0.54 |
| A40P | -0.785 |
| S43E | 0.249 |
| T48D | 0.0828 |
| T48M | 0.136 |
| E32T | 0.122 |
| K36M | 0.359 |
| Q41W | -0.967 |
| L31E | 0.232 |
| L38K | 0.0756 |
| K36D | 0.223 |
